Assay results of several laboratories.
Each line is one published result; not all experiments were run side by side.

The oral bioavailability of `Nc1nc2cnc(C(=O)N3CCOC[C@@H]3c3ccc(C(F)(F)F)cc3)cc2c2c1COC2` is reported as 77% (mouse; oral, 5 mg/kg).
The oral bioavailability of `COC1C=COC2(C)Oc3c(C)c(O)c4c(c3C2=O)C2=NC3(CCN(CC(C)C)CC3)NC2=C(NC(=O)C(C)=CC=CC(C)C(O)C(C)C(O)C(C)C(OC(=O)Nc2cnccn2)C1C)C4=O` (stereo not drawn) is reported as 74% (CD-1 mouse, female, plasma; oral, 10 mg/kg).
With `O=S(=O)(N[C@H]1CCC[C@@H](N2c3ccccc3CCc3ccccc32)[C@@H]1O)c1ccc(OC(F)(F)F)cc1` the oral bioavailability was 23% (mouse; oral, 100 mg/kg, solution formulation).
For `CCC(=O)NC1CC=C(c2cc3c(Nc4cc5ncsc5cc4F)ncnc3s2)CC1` (racemic), the oral bioavailability was 117% (BALB/c mouse).
The oral bioavailability of `COC1C=COC2(C)Oc3c(C)c(O)c4c(c3C2=O)C2=NC3(CCN(CC(C)C)CC3)NC2=C(NC(=O)C(C)=CC=CC(C)C(O)C(C)C(O)C(C)C(OC(=O)c2cccnc2)C1C)C4=O` (stereo not drawn) is reported as 79% (CD-1 mouse, female, plasma; oral, 10 mg/kg).
The oral bioavailability of `CC(C)NC(=O)NC1CC=C(c2cc3c(Nc4cc5ncsc5cc4F)ncnc3s2)CC1` (racemic) is reported as 68.8% (BALB/c mouse).
The oral bioavailability of `COC1C=COC2(C)Oc3c(C)c(O)c4c(c3C2=O)C2=NC3(CCN(CC(C)C)CC3)NC2=C(NC(=O)C(C)=CC=CC(C)C(O)C(C)C(O)C(C)C(OC(=O)c2cncnc2)C1C)C4=O` (stereo not drawn) is reported as 80% (CD-1 mouse, female, plasma; oral, 10 mg/kg).
The oral bioavailability of `O=C1C2CC3CC1CC(C(=O)N1CCN(c4ccc([N+](=O)[O-])c5ncccc45)CC1)(C3)C2` is reported as 3.83% (ICR mouse, male, plasma; oral, 5 mg/kg; relative to: intravenous 1 mg/kg).
For `CCC(=O)N1CCC=C(c2cc3c(Nc4cc5ncsc5cc4F)ncnc3s2)C1`, the oral bioavailability was 114% (BALB/c mouse).

For quick reference, copied from above:
For `CCC(=O)NC1CC=C(c2cc3c(Nc4cc5ncsc5cc4F)ncnc3s2)CC1` (racemic), the oral bioavailability was 117% (BALB/c mouse).
